Published values collected from several papers.
Lines come from different studies, so protocols differ. Values joined by “and” are separate records of one study, mostly repeats; a detail may differ. ± marks the error that the study gave.

SMILES	test	system	setting	scale	endpoint	value
Cc1c(-c2ccc(N3CCc4cccc(C(=O)Nc5nc6ccccc6s5)c4C3)nc2C(=O)O)cnn1CC12CC3(C)CC(C)(C1)CC(OCCNCC[C@H](O)CO)(C3)C2		beagle dog, male, anaesthetised	intravenous infusion, 0.01 mg/kg/min, 10 min	baseline: baseline	mean arterial pressure change	-1 mmHg
Cc1cn([C@H]2C[C@H]([18F])[C@@H](CO)O2)c(=O)[nH]c1=O	PET/CT	Sprague-Dawley rat, nasal cavity	intranasal, dose not given, 20 min	baseline: dose	fraction of dose remaining	~9%
CCN(CC)CCN(CCNCCc1ccc(O)c2[nH]c(=O)sc12)C(=O)CCOCCc1cccc2ccccc12	equilibrium dialysis	rat, plasma			fraction unbound	0.11
COc1cc(C(=O)N2CCC3(CC2)CC(=O)c2c(cnn2C(C)C)C3)cc(-c2ccc(C(=O)O)cc2)n1	item: total cholesterol	human, fasting serum	10 mg every 12 h, day 13, adjusted geometric mean	baseline: baseline and placebo	placebo-adjusted change from baseline	-1.3%
C/C(=N\NC(=O)Cn1c(-c2ccc(S(C)(=O)=O)cc2)nc2cc(Cl)ccc21)c1ccc(Cl)cc1		rat, stomach	concentration not given, 4 h	baseline: indomethacin	ulcer number	4.1%
CN1CCN(C(=O)[C@H](CCCN[C@@H]2C[C@H]2c2ccc(F)cc2)NC(=O)c2ccc(-n3ccnn3)cc2)CC1		NOD/SCID mouse MV4-11 xenograft, subcutaneous tumour	oral, 15 mg/kg/day, 24 h		tumour concentration	3.76 ± 0.43 µM
C[C@@H](N)C1CCN(S(=O)(=O)c2cccc3cnccc23)CC1		healthy volunteers	150 mg, fasted		discontinuations due to TEAEs	0%
COc1ncc(-c2nc3c(n2C(C)C)[C@H](c2ccc(Cl)cc2)N(c2cc(Cl)cn(C)c2=O)C3=O)c(OC)n1		human patients, plasma	oral, 4 mg, cycle 1 day 1, low-dose		median Tmax	2.5 h
OB1NN=Cc2ccccc21	stability, UPLC-MS	diluted serum	2 day, 37 °C	higher = more compound remaining	peak area	312000 a.u. and 305000 a.u. and 309000 a.u.
CNCc1ccc(-c2[nH]c3cc(F)cc4c3c2CCNC4=O)cc1		patients	oral, 840 mg twice daily, all grades		any adverse event incidence	100%
CNc1ccc(-c2nc3ccc(O)cc3s2)cc1 [carbon-11 labelled]	microPET/CT imaging	B6SJL mouse, normal, brain	intravenous, 15 min		SUV	0.266 ± 0.088
COc1ccnc(C(=O)N[C@H]2COC(=O)[C@H](Cc3ccccc3)[C@@H](O)[C@H](C)OC2=O)c1O	aerobic dark soil incubation	clay loam soil	20 °C, modelling endpoint		DT50	17.5 days
CCCCCCCCCCCCCCCC(=O)N[C@@H](CCC(=O)NCCCC[C@H](NC(=O)[C@H](C)NC(=O)[C@H](C)NC(=O)[C@H](CCC(N)=O)NC(=O)CNC(=O)[C@H](CCC(=O)O)NC(=O)[C@H](CC(C)C)NC(=O)[C@H](Cc1ccc(O)cc1)NC(=O)[C@H](CO)NC(=O)[C@H](CO)NC(=O)[C@@H](NC(=O)[C@H](CC(=O)O)NC(=O)[C@H](CO)NC(=O)[C@@H](NC(=O)[C@H](Cc1ccccc1)NC(=O)[C@@H](NC(=O)CNC(=O)[C@H](CCC(=O)O)NC(=O)[C@H](C)NC(=O)[C@@H](N)Cc1cnc[nH]1)[C@@H](C)O)[C@@H](C)O)C(C)C)C(=O)N[C@@H](CCC(=O)O)C(=O)N[C@@H](Cc1ccccc1)C(=O)N[C@H](C(=O)N[C@@H](C)C(=O)N[C@@H](Cc1c[nH]c2ccccc12)C(=O)N[C@@H](CC(C)C)C(=O)N[C@H](C(=O)N[C@@H](CCCNC(=N)N)C(=O)NCC(=O)N[C@@H](CCCNC(=N)N)C(=O)NCC(=O)O)C(C)C)[C@@H](C)CC)C(=O)O	item: TNF-α, IL-10, IL-1β, IL-6	C57BL/6N mice, high-fat diet-induced obese, serum	intraperitoneal, dose not given, 29 days	baseline: vehicle	serum inflammatory cytokines	no effect
C1=C/COCc2cc(ccc2OCCN2CCCC2)Nc2nccc(n2)-c2cccc(c2)COC/1	LC-MS/MS	Sprague-Dawley rat, male, plasma	oral, 36 mg/kg, with: voriconazole 30 mg/kg oral		Vz/F	155 ± 73.2 L
CCN1/C(=C/C(C)=O)Sc2ccc(F)cc21		cynomolgus monkey	oral, 100 mg/kg, 6 h post-dose		mean blood pressure	92 ± 7 mmHg
Cc1cc(Nc2ccc(S(F)(F)(F)(F)F)cc2)n2nc(C(C)(F)F)nc2n1		Plasmodium vivax malaria patients	oral, 600 mg		adverse event Stomatitis	11.1%
O=C1CCC(=O)N1Cc1cc2nccc(-c3cc(Cl)cc4c3N([C@@H]3CNC5(CCC5)C3)CCC4)c2s1		mouse, MV4-11 xenograft	40 mg/kg twice daily, brief dosing holidays in some mice		body weight loss	> 15%
O=C(N[C@H](Cc1c[nH]c2ccccc12)C(=O)Nc1ccncc1)c1ccc(N2CCN(c3ccc(F)cc3F)CC2)cc1F		Swiss Webster mouse, female, intestine	oral, 50 mg/kg, 8 h, 20% Kolliphor vehicle		concentration	45.2 µM
CC#CC(=O)N1CC[C@@H](n2c(=O)n(-c3ccc(Oc4ccccc4)cc3)c3c(N)ncnc32)C1		human, fasting, plasma	oral, 480 mg once daily, cycle 1 day 1		AUC(0-24h)	8500 ± 1700 ng·h/mL
Cc1cc(NC2CCN(C(=O)OC3CCN(C(=O)/C=C/CN(C)C)C3)CC2)n2ncc(C(C)C)c2n1 (stereo not shown)	Phase I dose escalation CTCAE v4.0, item: back pain	patients with advanced solid tumours	dose not given, TIW dosing grade 3 or higher		patients with adverse event	0%
Cc1noc(C)c1Cn1cc(N2C(=O)CN(Cc3cccc(O)c3)C2=O)cn1		pooled human liver microsomes	10 µM, 120 min, pH 7.4		remaining parent	121 % peak area
C=CC(=O)N1CCC(Oc2cc3c(Nc4ccc(Cl)c(Cl)c4F)ncnc3cc2OC)CC1		Sprague-Dawley rat male, plasma	oral, 2 mg/kg, with: schisandrin A 20 mg/kg daily 1 weeks pretreatment	baseline: no pretreatment	Vz/F ratio	0.33 fold
COc1cc(Nc2ncc3c(n2)-c2ccc(Cl)cc2C(c2c(F)cccc2OC)=NC3)ccc1C(=O)O		patients	oral, dose not given, grade 4, any attribution, with: pembrolizumab		decreased platelet count incidence	4%
CCn1cc(C(=O)N2CCOCC2)c(=O)c2cc(NC3Cc4ccccc4C3)cnc21		human, fasted	oral suspension, 600 mg single dose, median		Tmax	2 h
COCc1cc(C(=O)Nc2cc([C@H]3CC[C@@H](OC(=O)NC(C)C)C3)[nH]n2)n(C)n1		OVCAR-3 xenograft, NOD/SCID gamma mice, plasma	oral, 25 twice daily, tumour growth inhibition study		Tmax	7.5 h
COc1cc2nccc(Oc3ccc(NC(=O)c4cc5c(n(-c6ccccc6)c4=O)CCCC5=O)nc3)c2cc1OC		relapsed or refractory AML	oral, 10 mg once daily		grade ≥3 Pneumonia patients	0%
C[C@@H]1COCCN1c1cc(C2([S@](C)(=N)=O)CC2)nc(-c2cc[nH]c3nccc2-3)n1		Japanese advanced solid tumour patients	oral, 240 mg twice daily, any grade		Nausea incidence	50%
CN[C@@H](C)C(=O)N[C@H]1CN(S(=O)(=O)c2cccc(S(=O)(=O)N3CC[C@H]4CC[C@@H](C(=O)NC(c5ccccc5)c5ccccc5)N4C(=O)[C@@H](NC(=O)[C@H](C)NC)C3)c2)CC[C@H]2CC[C@@H](C(=O)NC(c3ccccc3)c3ccccc3)N2C1=O	LC-MS/MS, noncompartmental	human, plasma	30 mg, cycle 1 day 1		Vss	23.4 ± 0.573 L

SMILES	test	system	setting	scale	endpoint	value
[NH2][Pt]([NH2])([Cl])[Cl]		C57BL/6J mice, kidney injury model	intraperitoneal, 20 mg/kg, 72 h	baseline: control	body weight loss	24.8%
Cc1cnc(Nc2ccc(OCCN3CCCC3)cc2)nc1Nc1cccc(S(=O)(=O)NC(C)(C)C)c1		BALB/c mice, rhEPO-induced polycythemia	120 mg/kg, day 4		body weight	18.2 g and 17.9 g and 18.5 g and 18.8 g and 19.3 g
COc1cc2nccc(Oc3ccc(NC(=O)NC4CC4)c(Cl)c3)c2cc1C(N)=O		Sprague-Dawley rats male, plasma	oral, dose not given, with: posaconazole	baseline: without posaconazole	Vz/F decrease	41.4%
C=CC(=O)N1C[C@H](n2c(C#CC3CC3)c(C(=O)N[C@H](C)c3ccccc3)c3c(N)ncnc32)C[C@@H]1C		BALB/cAJcl-nu/nu male mouse, plasma	oral, 12.5 mg/kg, repeated dosing 7 days		apparent half-life	0.69 h
CN1CCN(C(=O)c2ccc3cc(CCNc4ccnc5ccc(C#N)cc45)ccc3c2)CC1		female BALB/c mouse, CT26 tumour, tumour and blood	oral, 100 mg/kg	baseline: tumour over blood	tissue/plasma ratio	~40
CCOc1c([C@H](C)n2nc(C)c3c(N)ncnc32)cc(Cl)c(F)c1[C@@H]1CNC(=O)C1	ECG	previously treated B-cell malignancy patients	oral, 45 mg once daily, baseline QTcF ≤450 ms		observations ΔQTcF >30 ≤60 ms	0%
C[C@@H]1OC(=O)[C@H](Cc2ccccc2)[C@H]1O	aerobic dark soil incubation	clay soil	20 °C, persistence endpoint		DT50	0.13 days
Cc1ccc(C(=O)N(CCCN)C(c2nc3snc(C)c3c(=O)n2Cc2ccccc2)C(C)C)cc1 (stereo not shown)		human patients	intravenous, 4 mg/day		grade ≥3 hyperbilirubinemia patients	0%
N#Cc1ccc2c(c1)[C@H]1CCCN(C(=O)c3ccc4[nH]cnc4c3)[C@H]1C2		human	40 mg, day 7		maximum ACTH level	12.1 pmol/L
C=CCN1CC(=O)N2[C@@H](Cc3ccc(O)cc3F)C(=O)N(Cc3cccc(N4CC(N5CCN(CC)CC5)C4)n3)C[C@@H]2N1C(=O)NCc1ccccc1		advanced solid tumour patients	oral, 120 mg twice daily, grade ≥3, dose-escalation		any treatment-related adverse event	0%
CCCCCCCOc1ccc(CCC(N)(CO)CO)cc1C(F)(F)F.Cl		healthy men	oral, 0.75 mg, day 21		renal clearance	0.198 mL/min
O=C(Nc1nc2cccc(-c3ccc(CN4CCS(=O)(=O)CC4)cc3)n2n1)C1CC1	item: dyspepsia	human rheumatoid arthritis patients	oral, 30 mg once daily, 4 weeks, regardless of relatedness		treatment-emergent adverse events	0%
CN1CCC[C@H](CN2c3ccccc3Sc3ccccc32)C1.Cl		fasted female ICR mouse, lymph node	oral, 16 mg/kg		Cmax	1370 ng/g
Cn1cc(Nc2nccc(-c3ccc4c(c3)CN(C3COC3)CC[C@H]4NC(=O)c3cn(C(C)(C)C)nn3)n2)cn1		human, whole blood	300 mg twice daily, day 14	baseline: pre-dose baseline	plasmablast count change	-19.9%
Cc1cc(-c2nccc3c2ccn3CC(=O)Nc2ccc(-c3cnccn3)cn2)ccn1		human	SAD part, single 20 mg dose		subjects with Wheezing TEAEs	0%
Cc1nc2cccc(OCC(C)(C)C(=O)NC(C)C)c2c(N)c1C(=O)O		male Swiss albino CD-1 mouse, bone marrow	oral, 2000 mg/kg, 48 h		micronucleated PCE per 14000 PCE	12
Cc1ccc2c(c1)C(=O)[C@]1(O)CCN(c3ccc4nc(C)ccc4c3)C1=N2.Cl		mouse	subcutaneous, 5 mg/kg, 10 min (brain Tmax)	baseline: brain over plasma	tissue/plasma ratio	2
O=C1CC[C@H](N2Cc3cc(N4CCN(CC5CCN(c6ccc([C@@H]7c8ccc(O)cc8CC[C@@H]7c7ccccc7)cc6)CC5)CC4)ccc3C2=O)C(=O)N1		human	oral, 200 mg, with: dabigatran etexilate 75 mg		participants with TEAE oropharyngeal pain	4.2%
Cc1ccc(Sc2ccccc2N2CCNCC2)c(C)c1	item: blood uric acid increased	healthy adult men	oral, 5 mg daily, 12 days		participants with TEAE	16.7%
CC(C)(C(=O)N1CCOc2c(C#N)cncc2C1)C(F)F	item: Lymphadenopathy	human	oral, 10 mg once daily, 14 days, multiple ascending dose		subjects with adverse event	0%
Cc1cccc(CNC(=O)c2cn(CCNC(=O)c3ccccc3S)c3cc4c(cc3c2=O)OC(F)(F)O4)n1		Sprague-Dawley rat, male, plasma	intramuscular, 10 mg/kg of parent drug		bioavailability	49.6 ± 8%
Cn1cncc1-c1c(F)cncc1NC(=O)c1c(N)nn2cc(F)cnc12		patients, advanced solid tumours	oral, 180 mg once daily, 2 weeks on 1 week off	baseline: patients	grade ≥1 adverse events	100%
Cc1cccc(CNC(=O)c2cn(CCNC(=O)c3ccccc3Sc3c([N+](=O)[O-])ncn3C)c3cc4c(cc3c2=O)OC(F)(F)O4)n1		Sprague-Dawley rat, male, whole blood	intramuscular, 3 mg/kg of parent compound		AUC(0-t)	30.6 ± 12 ng·h/mL
O=C(O)CCC(=O)O.[2H]C([2H])([2H])Oc1cc(C)c2[nH]ccc2c1CN1CC[C@@H](C2CC2)C[C@H]1c1ccc(C(=O)O)cc1	multiple ascending dose	healthy Chinese subjects	50 mg twice daily		subjects with lymphopenia	12.5%
CCc1cc(C(=O)NC)c2nccc(N3CCc4c(cc(Cn5ccnc5)cc4-c4cn(C)nc4C(F)(F)F)C3=O)c2c1		Sprague Dawley rat	oral, 100 mg/kg twice daily, 7 days	baseline: vehicle	heart weight change	-5.73%
NC1(C(=O)N[C@@H](CCO)c2ccc(Cl)cc2)CCN(c2nc[nH]c3nccc2-3)CC1		metastatic CRPC patients	400 mg b.i.d., grade 3 to 4, treatment-related, with: enzalutamide 160 mg daily		incidence of Stomatitis	0%
CCc1c(-c2ccccc2)c(-c2ccccc2)nn1-c1ccccc1-c1cccc(OCC(=O)O)c1		Sprague-Dawley rat	intravenous, dose not given		Clast	21.6 ng/mL and 12.2 ng/mL and 7.2 ng/mL

Excerpt of the above:
SMILES	test	system	setting	scale	endpoint	value
COc1cc2nccc(Oc3ccc(NC(=O)c4cc5c(n(-c6ccccc6)c4=O)CCCC5=O)nc3)c2cc1OC		relapsed or refractory AML	oral, 10 mg once daily		grade ≥3 Pneumonia patients	0%
C[C@@H]1COCCN1c1cc(C2([S@](C)(=N)=O)CC2)nc(-c2cc[nH]c3nccc2-3)n1		Japanese advanced solid tumour patients	oral, 240 mg twice daily, any grade		Nausea incidence	50%
CN[C@@H](C)C(=O)N[C@H]1CN(S(=O)(=O)c2cccc(S(=O)(=O)N3CC[C@H]4CC[C@@H](C(=O)NC(c5ccccc5)c5ccccc5)N4C(=O)[C@@H](NC(=O)[C@H](C)NC)C3)c2)CC[C@H]2CC[C@@H](C(=O)NC(c3ccccc3)c3ccccc3)N2C1=O	LC-MS/MS, noncompartmental	human, plasma	30 mg, cycle 1 day 1		Vss	23.4 ± 0.573 L
[NH2][Pt]([NH2])([Cl])[Cl]		C57BL/6J mice, kidney injury model	intraperitoneal, 20 mg/kg, 72 h	baseline: control	body weight loss	24.8%
Cc1cnc(Nc2ccc(OCCN3CCCC3)cc2)nc1Nc1cccc(S(=O)(=O)NC(C)(C)C)c1		BALB/c mice, rhEPO-induced polycythemia	120 mg/kg, day 4		body weight	18.2 g and 17.9 g and 18.5 g and 18.8 g and 19.3 g
